Experimental data pooled from the literature.
Protocols differ between the studies behind these lines. ± gives the spread as reported. Non-standard residues stand in square brackets, D forms with d. Where no end group is shown, it is not given here. No end group written: not given here.
Ferroportin: Ferroportin (Mus musculus, UniProt Q9JHI9)
Sequence of UniProt Q9JHI9 (whole entry, looked up): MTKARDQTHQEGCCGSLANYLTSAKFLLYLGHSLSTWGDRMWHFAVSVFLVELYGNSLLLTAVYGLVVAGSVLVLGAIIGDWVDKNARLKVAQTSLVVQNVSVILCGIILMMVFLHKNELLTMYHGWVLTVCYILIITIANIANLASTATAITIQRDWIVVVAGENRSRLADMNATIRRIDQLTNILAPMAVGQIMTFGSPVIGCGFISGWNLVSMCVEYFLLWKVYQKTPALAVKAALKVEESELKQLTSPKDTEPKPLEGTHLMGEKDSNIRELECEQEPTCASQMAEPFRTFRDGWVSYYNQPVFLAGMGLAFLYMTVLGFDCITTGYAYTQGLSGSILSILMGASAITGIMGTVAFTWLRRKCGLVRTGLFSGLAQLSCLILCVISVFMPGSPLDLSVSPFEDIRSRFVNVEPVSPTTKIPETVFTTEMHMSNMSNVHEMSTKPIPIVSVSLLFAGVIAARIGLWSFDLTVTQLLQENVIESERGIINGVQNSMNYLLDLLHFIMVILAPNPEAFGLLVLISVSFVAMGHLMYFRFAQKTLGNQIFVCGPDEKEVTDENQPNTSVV
B1: chain SAGTSCVPGWAIPHNPLPSCRWYVTSRTCGIGPRLPWPELKRRCCRELADIPAYCRCTALSILMDGAIPPGPDAQLEGRLEDLPGCPREVQRGFAATLVTEAECNLATIS
B2: chain DFVLDNEGNPLENGGTYYILSDITAFGGIRAAPTGNERCPLTVVQSRNELDKGIGTIISSPYRIRFIAEGHPLSLKFDSFAVIMLCVGIPTEWSVVEDLPEGPAVKIGENKDAMDGWFRLERVSDDEFNNYKLVFCPQQAEDDKCGDIGISIDHDDGTRRLVVSKNKPLVVQFQKLDKESL
Sequence of UniProt P53350 (whole entry, looked up): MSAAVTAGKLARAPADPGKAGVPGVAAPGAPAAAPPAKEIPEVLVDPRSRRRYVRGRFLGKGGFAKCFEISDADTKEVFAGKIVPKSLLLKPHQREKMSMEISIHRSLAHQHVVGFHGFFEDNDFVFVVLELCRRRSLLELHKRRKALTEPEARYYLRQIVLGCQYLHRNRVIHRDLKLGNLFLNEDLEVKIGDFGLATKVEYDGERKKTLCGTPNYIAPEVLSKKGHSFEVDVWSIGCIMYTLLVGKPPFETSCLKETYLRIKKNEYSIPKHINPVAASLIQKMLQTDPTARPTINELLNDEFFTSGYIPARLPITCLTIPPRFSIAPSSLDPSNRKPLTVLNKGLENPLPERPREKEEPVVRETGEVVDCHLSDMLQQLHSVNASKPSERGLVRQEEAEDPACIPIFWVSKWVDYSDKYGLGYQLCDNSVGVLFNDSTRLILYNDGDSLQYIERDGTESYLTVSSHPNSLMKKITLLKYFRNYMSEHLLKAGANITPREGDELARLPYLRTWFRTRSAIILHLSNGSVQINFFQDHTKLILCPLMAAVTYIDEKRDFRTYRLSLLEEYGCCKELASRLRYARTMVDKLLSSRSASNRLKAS
Sequence of UniProt P56817 (whole entry, looked up): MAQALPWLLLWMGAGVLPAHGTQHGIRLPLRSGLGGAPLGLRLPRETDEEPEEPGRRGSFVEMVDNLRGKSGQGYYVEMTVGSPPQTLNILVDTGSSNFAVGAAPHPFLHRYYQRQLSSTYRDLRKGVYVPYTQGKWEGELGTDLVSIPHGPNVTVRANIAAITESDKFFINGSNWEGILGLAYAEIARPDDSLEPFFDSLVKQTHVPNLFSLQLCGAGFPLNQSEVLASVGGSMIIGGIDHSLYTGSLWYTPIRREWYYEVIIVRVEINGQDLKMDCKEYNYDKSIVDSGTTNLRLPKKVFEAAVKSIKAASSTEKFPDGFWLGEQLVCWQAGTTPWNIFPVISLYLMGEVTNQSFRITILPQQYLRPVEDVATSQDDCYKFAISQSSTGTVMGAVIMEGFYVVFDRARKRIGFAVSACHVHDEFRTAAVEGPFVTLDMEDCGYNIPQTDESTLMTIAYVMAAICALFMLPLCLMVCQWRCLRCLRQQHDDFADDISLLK
Sequence of UniProt P14438 (whole entry, looked up): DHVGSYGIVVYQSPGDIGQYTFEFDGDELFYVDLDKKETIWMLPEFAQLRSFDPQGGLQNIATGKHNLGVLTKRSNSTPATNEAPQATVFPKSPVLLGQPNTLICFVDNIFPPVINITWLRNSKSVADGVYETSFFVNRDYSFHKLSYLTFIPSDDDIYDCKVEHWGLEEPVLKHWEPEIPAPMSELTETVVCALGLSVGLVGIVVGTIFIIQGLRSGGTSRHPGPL
Sequence of UniProt P11309 (whole entry, looked up): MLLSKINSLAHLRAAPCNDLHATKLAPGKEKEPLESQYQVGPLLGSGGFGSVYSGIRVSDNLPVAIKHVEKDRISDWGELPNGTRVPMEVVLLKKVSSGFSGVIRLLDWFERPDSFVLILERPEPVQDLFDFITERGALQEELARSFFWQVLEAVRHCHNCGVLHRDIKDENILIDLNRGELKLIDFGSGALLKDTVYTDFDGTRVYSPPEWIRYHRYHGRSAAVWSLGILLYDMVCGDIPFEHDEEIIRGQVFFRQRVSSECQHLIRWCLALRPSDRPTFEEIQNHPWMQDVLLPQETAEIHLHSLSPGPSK
Sequence of UniProt P06344 (whole entry, looked up): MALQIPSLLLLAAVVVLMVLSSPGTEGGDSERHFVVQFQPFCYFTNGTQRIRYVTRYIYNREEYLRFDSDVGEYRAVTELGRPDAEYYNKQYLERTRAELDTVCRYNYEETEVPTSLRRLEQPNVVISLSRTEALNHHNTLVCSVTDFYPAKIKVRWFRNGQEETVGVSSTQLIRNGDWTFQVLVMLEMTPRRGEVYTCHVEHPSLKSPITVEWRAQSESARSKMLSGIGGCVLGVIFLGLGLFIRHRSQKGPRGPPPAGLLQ
Sequence of UniProt O60656 (whole entry, looked up): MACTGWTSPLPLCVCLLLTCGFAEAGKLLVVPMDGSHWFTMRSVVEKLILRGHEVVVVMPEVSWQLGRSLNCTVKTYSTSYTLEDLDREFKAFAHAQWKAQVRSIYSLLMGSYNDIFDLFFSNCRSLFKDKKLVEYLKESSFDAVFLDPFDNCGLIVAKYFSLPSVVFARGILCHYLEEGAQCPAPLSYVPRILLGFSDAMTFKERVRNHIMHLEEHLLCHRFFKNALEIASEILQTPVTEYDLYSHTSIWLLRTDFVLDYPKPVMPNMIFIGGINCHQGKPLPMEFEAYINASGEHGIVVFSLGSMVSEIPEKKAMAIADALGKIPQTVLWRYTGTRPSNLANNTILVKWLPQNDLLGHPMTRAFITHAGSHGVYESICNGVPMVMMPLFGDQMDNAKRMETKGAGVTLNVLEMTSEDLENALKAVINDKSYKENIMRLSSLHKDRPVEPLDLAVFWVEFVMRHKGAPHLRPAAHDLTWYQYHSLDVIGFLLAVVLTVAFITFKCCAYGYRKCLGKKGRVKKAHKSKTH

For `PTP1B`, phosphorylation read “not detected” (PIM1 (Homo sapiens, UniProt P11309); substrate phosphorylation, substrate; 1 to 2 µM, 2 h, room temperature, together with: 100 nM kinase).
With `AAEDWCKKGDT` the inhibition was 0% (peptide, human polyclonal IgM RF MCC; concentration not given, 5 µg/mL mAb II-481 coated, together with: RF at 50% max binding concentration).
The Kd of `GLHST (FITC-labelled, PEGylated)` is reported as 26.7 ± 2.8 nM (Serine/threonine-protein kinase PLK1, polo-box domain (PLK1, Homo sapiens, UniProt P53350); binding, fluorescence polarization; together with: FITC-labelled peptide).
`acetyl-MBP(1-17)` gave a relative abundance of 2410 (H-2 class II histocompatibility antigen, A-U beta chain/H2-Aa (Mus musculus, UniProt P06344+P14438); peptide presentation by I-A, FT-ICR mass spectrometry; T cell-depleted B10.PL splenocytes, mouse; 16 h, 37 °C, together with: MBP 95 µg/mL; baseline: angiotensin internal standard).
For `angiostatin`, the Kd was 500 nM (Integrin alpha-M/beta-2 (Homo sapiens, UniProt P05107+P11215); binding).
With `SQSVLYS` the inhibition was 0% (peptide, human polyclonal IgM RF SOR; concentration not given, 5 µg/mL mAb II-481 coated, together with: RF at 50% max binding concentration).
`B1` gave a Ki of 120 nM (F12 (Homo sapiens, UniProt P00748); enzyme activity, inhibitor).
For `UGT1A9 (Homo sapiens, UniProt O60656)`, the Vmax/Km was 227 µL/min/mg (COc1ccc(-c2cc(=O)c3ccc(O)cc3o2)cc1; steady-state kinetics; pH 7.4, 37 °C).
`DTHFAICIFCCGCCHRSKCGMCCKT-OH (hepcidin P5A; disulfide (positions not given here); ends not checked; sequence looked up)` — result for “ferroportin internalisation activity”: 77 ± 3% (Ferroportin; Fpn-GFP fluorescence loss, agonist, flow cytometry; peptide, HEK293 (ECR293) expressing mouse Fpn-GFP; 0.3 µM, 24 h, ponasterone-induced; baseline: native hepcidin-25).
`KTEEISEVN[Sta]VAEF (statine residue; Sta = CC(C)C[C@H](N)[C@@H](O)CC(=O)O)` has an IC50 of 29 nM (Beta-secretase 1 (BACE1, Homo sapiens, UniProt P56817); enzyme activity, surface plasmon resonance; peptide; 1 h, pH 4.5, 37 °C, together with: APP peptide substrate).
`B2` has a Ki of 6150 nM (Plasma kallikrein (KLKB1, Homo sapiens, UniProt P03952); enzyme activity, inhibitor).
For `ATHFPICIFCCGCCHRSKCGMCCKT-OH (hepcidin D1A; disulfide (positions not given here); ends not checked; sequence looked up)`, “ferroportin internalisation activity” read 67 ± 5% (Ferroportin; Fpn-GFP fluorescence loss, agonist, flow cytometry; peptide, HEK293 (ECR293) expressing mouse Fpn-GFP; 0.3 µM, 24 h, ponasterone-induced; baseline: native hepcidin-25).

A few entries again:
With `SQSVLYS` the inhibition was 0% (peptide, human polyclonal IgM RF SOR; concentration not given, 5 µg/mL mAb II-481 coated, together with: RF at 50% max binding concentration).
